Published values pooled from the literature.
Every numbered part comes from another study and shows a few of its results, in no order.

Block 1 — technique: protein-binding microarray; molecule type: double-stranded DNA, one strand shown; sample: in vitro; concentration: 940 nM top; setting: 60-bp whole probe; added: salmon DNA 0.4 mg/ml; reference: random background probes; direction: higher = stronger binding; shared flanks, not repeated: GCCTAGCAC … GTCTTGATTCGCTTGACGCTGCTG
Target: Interferon regulatory factor 5, full length, phosphomimetic (IRF5, Homo sapiens, UniProt Q13568-2, residues 1-514, S451D/S453D/S456D/S462D)
`TTGTTTCCATTTTCTGAATGCGTGCTA` — result for “fitted relative affinity”: 1.54 z-score.
For `GACGATTTCAGTTGCGAGACGTGCTAG`, “fitted relative affinity” read 0.313 z-score.
Under “fitted relative affinity”, `TTAGGTTTCGCACTGGGTTAGTGCTAG` is recorded as 5.74 z-score.
Under “fitted relative affinity”, `GAAGATTCCAGTTTCGAGACGTGCTAG` is recorded as 4.01 z-score.
`TTATGACTGGACACTGGGTTAGTGCTA`: “fitted relative affinity” 0.0178 z-score.
Under “fitted relative affinity”, `TAAGCAAAAATGATTGGTTGGTGCTAG` is recorded as -0.45 z-score.
`TAGTTGCAAGCCATGGGTGGGTGCTAG` — result for “fitted relative affinity”: -0.404 z-score.
Under “fitted relative affinity”, `GTTTGTCCCTATTTAAGATAGTGCTAG` is recorded as 0.775 z-score.
Under “fitted relative affinity”, `TTAGGTCTCGGTATCGGTTCGTGCTAG` is recorded as 6.51 z-score.
For `GCCGGTATCGGGTTTCGGGACGTGCTA`, “fitted relative affinity” read 6.51 z-score.
`TTAGATTTCGGGACTCGATTAGTGCTA` — result for “fitted relative affinity”: 0.46 z-score.
`CCAGTTTTCTTTTCATTACTGTGCTAG`: “fitted relative affinity” 2.5 z-score.
For `TAAGAACTGGGGACTGGATTAGTGCTA`, “fitted relative affinity” read -0.018 z-score.
`GTCGTCACTGCCATAATGCGGTGCTAG` — result for “fitted relative affinity”: -0.244 z-score.
For `TCATCATTGCCTATTTTACTGTGCTAG`, “fitted relative affinity” read 0.998 z-score.
`GACTGTTTCGGTTTCGGGACGTGCTAG` — result for “fitted relative affinity”: 8.87 z-score.
For `TCACTCTTCTTTTTTTTACTGTGCTAG`, “fitted relative affinity” read 2.26 z-score.
Under “fitted relative affinity”, `TTAGATCACAGACTGGATTAGTGCTAG` is recorded as -0.584 z-score.
`GACGGTACCGGTATCGGGACGTGCTAG`: “fitted relative affinity” 2.84 z-score.

Block 2 — technique: RNA Bind-n-Seq; molecule type: RNA; sample: in vitro; concentration: 1 µM; setting: whole 134-nt RNA, ends assumed; added: 150 mM KCl; reference: input library; direction: higher = stronger binding
Target: Ras GTPase-activating protein-binding protein 1, RRM domain (G3BP1, Homo sapiens, UniProt Q13283)
UniProt Q13283, sequence (whole entry, looked up): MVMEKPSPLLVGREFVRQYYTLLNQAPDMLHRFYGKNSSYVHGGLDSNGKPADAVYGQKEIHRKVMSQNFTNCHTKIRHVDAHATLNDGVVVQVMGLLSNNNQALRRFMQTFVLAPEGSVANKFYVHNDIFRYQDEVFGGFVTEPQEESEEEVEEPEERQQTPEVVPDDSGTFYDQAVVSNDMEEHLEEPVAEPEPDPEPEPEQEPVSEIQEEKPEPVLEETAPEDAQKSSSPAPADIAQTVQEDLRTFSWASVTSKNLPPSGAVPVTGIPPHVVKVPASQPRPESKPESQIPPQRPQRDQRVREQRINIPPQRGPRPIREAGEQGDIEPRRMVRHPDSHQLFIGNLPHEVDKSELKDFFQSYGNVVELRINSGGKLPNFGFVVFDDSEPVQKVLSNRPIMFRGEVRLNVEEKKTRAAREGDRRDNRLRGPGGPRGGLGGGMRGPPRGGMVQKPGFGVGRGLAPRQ
`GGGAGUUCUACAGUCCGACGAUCUGUGCUACACAUCGUAUGUACCGAAUCGGGGCCCCCCCGGGGCCCCCCCGGGGCCCCCCCGGGAAAGUAUUAUGUUACGCCGUUCGGAUCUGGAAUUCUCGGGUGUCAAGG` has a log2 enrichment of -0.709.
`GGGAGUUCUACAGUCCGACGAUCUGGGAGGUGGAUUUUGUUUAUUUUUUUAGCUCAUUUCCAGGGGUGGGAAUUUUUUUUUAAUAUGUGUCAUGAAUAAAGUUUUUUUUGAAAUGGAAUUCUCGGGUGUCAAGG` gave a log2 enrichment of 2.02.
The log2 enrichment of `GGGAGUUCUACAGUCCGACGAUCUGGCAGAGAAAUUGCAGCUGCAGGAGCAGCUCCAGGCAGAAACCGAGCUGUGUGCCGAGGCUGAGGAGCUCCGGGCCCGCCUGACCGCCAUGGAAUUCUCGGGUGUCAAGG` is reported as -0.282.
`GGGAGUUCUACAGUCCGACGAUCCACAGACAACACGCACCCACACAGACACAGAGGGAAGGGGUUGGGAUAGGGACAGGGUGCACAGCAGGGCGGGGUAGGACCCCAGCCCCUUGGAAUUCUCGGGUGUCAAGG` gave a log2 enrichment of -0.0841.
For `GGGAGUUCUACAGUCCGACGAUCUACCUUUAGAGGAGGAUCUGAUGGAUAUGGCAGUGGACGUGGAUUUGGGGAUGGCUAUAAUGGGUAUGGAGGAGGACCUGGAGGUGGCAAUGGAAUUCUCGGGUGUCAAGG`, the log2 enrichment was -0.784.
`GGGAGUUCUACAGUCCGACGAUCCAAGUCCUGUGCUACACAUCGUAUGUACCGAAUCGGGAAAGGGUUUGGGAAAGGGAAAGUAUUAUGUUACGCCGUUCGGAUCUGCACUUCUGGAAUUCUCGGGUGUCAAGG` gave a log2 enrichment of 0.711.
The log2 enrichment of `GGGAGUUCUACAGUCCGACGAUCUGGCAGGAAAGAGUUCCUAGAGAGAGAAGACAAAGACAGUCUGUGUUGCAAAAGAAGCCCAAGGCUGAAGAUUUAAGAACUGAAUGUGCAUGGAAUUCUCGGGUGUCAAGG` is reported as 0.000467.
`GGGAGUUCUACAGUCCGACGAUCCCUCAAGUCCUGUGCUACACAUCGUAUGUACCGAAUCGGGCGGGCGGGGCGGAAAGUAUUAUGUUACGCCGUUCGGAUCUGCACUUCCAGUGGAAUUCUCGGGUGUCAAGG` has a log2 enrichment of -0.0668.
`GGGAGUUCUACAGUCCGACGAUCAGUCCUGUGCUACACAUCGUAUGUACCGAAUCGGGGAAAGGGGAGGGGAAAAAGGGGAAAGUAUUAUGUUACGCCGUUCGGAUCUGCACUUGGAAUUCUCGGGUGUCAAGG` has a log2 enrichment of 0.998.
With `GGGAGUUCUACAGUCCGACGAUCCAAGUCCUGUGCUACACAUCGUAUGUACCGAAUCGGGUUUUGGUUUUGGUUUUGGAAAGUAUUAUGUUACGCCGUUCGGAUCUGCACUUCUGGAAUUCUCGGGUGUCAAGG` the log2 enrichment was -0.348.
With `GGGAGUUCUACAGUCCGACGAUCGCAGGAAGUAAAAACAAAUGGAAAUGCUUCGGAUAGUGGCAGGGGUGGGGCUUGCUAAGGAAAGGGUGGGAUGGGAGUGGGUAAAGAGUUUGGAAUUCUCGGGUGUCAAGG` the log2 enrichment was 1.22.
`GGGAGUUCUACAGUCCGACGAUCUCCUGUGCUACACAUCGUAUGUACCGAAUCGGGGUUUGGGGAAAAAAAGGGGUUUGGGGAAAGUAUUAUGUUACGCCGUUCGGAUCUGCAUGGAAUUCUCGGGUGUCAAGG` gave a log2 enrichment of 0.926.
With `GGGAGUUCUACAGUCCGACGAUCUGGGAGGUGGAUUUUGUUUGUUUUUUUAGCUCAUUUCCAGGGGUGGGAAUUUUUUUUUAAUAUGUGUCAUGAAUAAAGUUGUUUUUGAAAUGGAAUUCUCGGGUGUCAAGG` the log2 enrichment was 1.01.
`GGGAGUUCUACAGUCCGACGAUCUCAAGUCCUGUGCUACACAUCGUAUGUACCGAAUCGGCCCGGCCCGGCCCGGGGAAAGUAUUAUGUUACGCCGUUCGGAUCUGCACUUCCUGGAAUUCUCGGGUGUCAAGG` has a log2 enrichment of -0.898.

Block 3 — technique: protein binding microarray; molecule type: double-stranded DNA, one strand shown; sample: in vitro; concentration: not given; reference: not given; direction: higher = stronger binding
Target: Histone acetyltransferase KAT6A, winged helix 1, GST fusion (KAT6A, Homo sapiens, UniProt Q92794, residues 1-85)
Setting: 8-mer, flanks averaged, mean of 2 arrays, mostly near background
Residues (chain): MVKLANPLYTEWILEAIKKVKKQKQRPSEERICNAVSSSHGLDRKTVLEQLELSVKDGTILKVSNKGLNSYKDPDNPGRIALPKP
For `AATAATCG`, the E-score was -0.185.
The E-score of `GACCCGTC` is reported as 0.25.
The E-score of `CACTGATA` is reported as -0.17.
With `CTGGAATC` the E-score was -0.146.
For `GACACAGA`, the E-score was -0.0805.
The E-score of `GACCATCA` is reported as -0.0417.
For `GGACAACC`, the E-score was -0.0421.
`ACCTCACT` has an E-score of 0.0459.
The E-score of `TACAGGAA` is reported as -0.00167.
`TATTACCA` gave an E-score of -0.0992.
`TATCGACA` has an E-score of 0.105.
The E-score of `CAGACTAC` is reported as -0.0754.
For `GCTCGTTA`, the E-score was -0.139.
`CCGGGTTC` gave an E-score of 0.333.
`CTCAGCCC` gave an E-score of -0.133.
The E-score of `CCCGCAGA` is reported as 0.301.
`CACCTCGC` gave an E-score of 0.167.
`CCCCCCCC` has an E-score of -0.0168.
`CCAACGCA` has an E-score of -0.0477.
For `CACGGTGG`, the E-score was 0.0248.
`CCCCATGC` gave an E-score of -0.0257.

Block 4 — technique: RNA Bind-n-Seq; molecule type: RNA; sample: in vitro; concentration: 365 nM; reference: no-protein control; direction: higher = stronger binding
Target: RNA binding protein fox-1 homolog 2, RRM domain, GST-SBP tag (RBFOX2, Homo sapiens, UniProt O43251-10, residues 100-194)
Setting: natural RNA segment, single round, ends assumed
Construct (chain): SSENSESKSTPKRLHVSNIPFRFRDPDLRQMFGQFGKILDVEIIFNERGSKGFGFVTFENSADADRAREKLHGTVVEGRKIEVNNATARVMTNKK
`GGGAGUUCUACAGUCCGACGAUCUUCCACUAGAAGGAGUCACCCAGGCAUUUAGUGAAUGAUAAUCCUAGAAGUUGAGUCUGAGUACAUCAGAGUUUGGCAUUAUUUGCAACAUCCCAGGAAUGAGCUAUAAGUGGAAUUCUCGGGUGCCAA` — result for “RBNS enrichment (R)”: 0.932.
Under “RBNS enrichment (R)”, `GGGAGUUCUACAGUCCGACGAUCGUGCCAAAUUUUCCACCCAGUAUAAAUUUAGUAACCCGCUAUGAGCAUAUGUAGGAUAUUCAAUUUGCAGAUACUUUUGUUGGUUAUGUUGGUUUAUAAUAGACAAGUUUUGGAAUUCUCGGGUGCCAA` is recorded as 0.487.
`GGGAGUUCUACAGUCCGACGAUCGGCAUGGAGCCCUGCCCUGAGUGUCUGUCCCUCUUCAGCCAAGCCCAAGUCUCCUAGACCCCCAGGGAGCCAGUGAACUGUCACCUUCUCUUCAUCACAGAAUGAGUAAAUGGAAUUCUCGGGUGCCAA`: “RBNS enrichment (R)” 0.378.
`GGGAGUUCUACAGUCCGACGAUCGCCAAGCCAGGCCUGGCUGUGUCUGUAGUCAUUUGCCCUCUCAUUCGGCCUAUAUCUGACCAUUAGGUCCCUCCCCUUCAGUAGGUCCUGGAGACAUAGGGGCUGCUACCUGGAAUUCUCGGGUGCCAA`: “RBNS enrichment (R)” 0.279.
`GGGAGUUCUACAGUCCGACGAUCGAGCCUCAUGCUCAUGAAAUCAUGGUCCCAGGCGGCUCCACCUCAAAGAGAAAGCCUGGAAGGAAAUGUUCCAACUCCUUAGAAGGGUCGUGCAAGCUGCUGUGGGAGGGUGGAAUUCUCGGGUGCCAA` — result for “RBNS enrichment (R)”: 0.324.
`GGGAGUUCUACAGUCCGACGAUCUUGCUGCUCCAACCCAUAGCACGCUUCCUACUGCACACACAUGUUUUAACCAACUGUGCCUCCCUACAUAUGACUCAUAUGAAGAGGUGCACAGGAUGCUACAGCUGGCCUGGAAUUCUCGGGUGCCAA` — result for “RBNS enrichment (R)”: 0.41.
Under “RBNS enrichment (R)”, `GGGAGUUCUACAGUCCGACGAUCCAAGCUAGAUUUCCGACAGCAUUAUUCUGAGAGCUGGCUACCAUUACCCUUCUUGCUAUUGGAAACUCAGCACAUUUGAACUUGGGUUUGAUUCAGUAUUAACAGAUCUUUGGAAUUCUCGGGUGCCAA` is recorded as 7.75.
`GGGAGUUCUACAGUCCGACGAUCGUUAGCUGAAGAUGGGAAAGACUCAAGCCAUUGGGGUAAAGAUAACCAGAUUGAUCCAAUUGGCCAUGGGAGCUUAGGCCAUAGUCUUGGAAGUGAGCAGGACAAAGACCUGGAAUUCUCGGGUGCCAA` — result for “RBNS enrichment (R)”: 0.638.
For `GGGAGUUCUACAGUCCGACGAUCCUGGGGCUGCUCACUAGGCCUUGUAAUCACACAGCACAAGCAUACCUCACAGCCACCCUGAGGCUCUCUGACCCUGGGAUGCUGAGGCCUUCUUAGCCUCUAGGUACAGUUGGAAUUCUCGGGUGCCAA`, “RBNS enrichment (R)” read 0.329.
For `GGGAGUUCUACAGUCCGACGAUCACCUUGCUUAGGCCUCAGAUCCCAGCUGUGCUCUCCAAUCCAUUAAUAAAGCUGCUUUUAACCCUCUCUGGCCAUUGUAUCUAUUAUCUACUGGGAACUGGGGUGGCGGCUGGAAUUCUCGGGUGCCAA`, “RBNS enrichment (R)” read 0.274.
For `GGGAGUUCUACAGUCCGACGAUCCCAUUUCUAAUGUUGUCCUCACAAGAAGGCUAAUUGGUGGUGAGACAGCAGGGGAGGAGGAAGAGCUGUGGUUUGUAACUUGUUCAACUCAGGCAAUAAGCGAUUUUAGCUGGAAUUCUCGGGUGCCAA`, “RBNS enrichment (R)” read 0.441.
`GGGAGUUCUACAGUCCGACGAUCGACUCACACUUCUGACCCUGCCUGUCUUUUUGGGGUUUUUUUGAGUUGGAGUCUCGCUGUGUCGCCCAGACUGGAGUGCAGUGGUGGGAUCGCGGCUCACUGCAACCUCCUGGAAUUCUCGGGUGCCAA`: “RBNS enrichment (R)” 1.58.

Some of these lines once more (block 1):
For `TCACTCTTCTTTTTTTTACTGTGCTAG`, “fitted relative affinity” read 2.26 z-score.
`TTGTTTCCATTTTCTGAATGCGTGCTA` — result for “fitted relative affinity”: 1.54 z-score.
`GACTGTTTCGGTTTCGGGACGTGCTAG` — result for “fitted relative affinity”: 8.87 z-score.
`TTAGATTTCGGGACTCGATTAGTGCTA` — result for “fitted relative affinity”: 0.46 z-score.
